Experimental data gathered from unrelated publications.
A part holds a random share of what one study measured. Substitutions count along the parent as printed.

Sample 1
Target: CCNA1, cyclin fold, Cln2 fusion (human)
Technique: yeast growth competition, sequencing
Sample: yeast
Setting: weak parent motif
Baseline: not given
Direction: higher = stronger binding
Parent: PKMYT1 docking peptide (human); SFEPRNLLSLFED; partner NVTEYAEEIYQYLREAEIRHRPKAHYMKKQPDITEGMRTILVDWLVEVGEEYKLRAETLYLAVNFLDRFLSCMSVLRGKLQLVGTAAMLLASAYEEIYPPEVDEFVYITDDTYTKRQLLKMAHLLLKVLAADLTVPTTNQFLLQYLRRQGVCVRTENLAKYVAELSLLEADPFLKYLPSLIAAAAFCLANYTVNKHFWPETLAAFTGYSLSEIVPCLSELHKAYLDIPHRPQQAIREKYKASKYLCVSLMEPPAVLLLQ
`E12F`: “normalised enrichment score” 0.136.
`L10R` — result for “normalised enrichment score”: 0.0548.
Under “normalised enrichment score”, `L8P` is recorded as 0.155.
`E3V`: “normalised enrichment score” 0.239.
For `L10H`, “normalised enrichment score” read 0.0517.
For `D13F`, “normalised enrichment score” read 0.0749.
`F11I`: “normalised enrichment score” 0.233.
For `E3L`, “normalised enrichment score” read 0.245.
`E12H` — result for “normalised enrichment score”: 0.0284.
`R5I`: “normalised enrichment score” 0.268.
Under “normalised enrichment score”, `L7I` is recorded as 0.0921.
`S1H`: “normalised enrichment score” 0.105.
`D13Y` — result for “normalised enrichment score”: 0.187.
Under “normalised enrichment score”, `S1W` is recorded as 0.366.
For `N6G`, “normalised enrichment score” read 0.423.
For `D13S`, “normalised enrichment score” read 0.191.
Under “normalised enrichment score”, `D13I` is recorded as 0.0147.
Under “normalised enrichment score”, `R5K` is recorded as 0.181.

Sample 2
Target: Prothrombin, mature alpha-thrombin (F2, Homo sapiens, UniProt P00734)
Technique: aptamer microarray, sandwich
Molecule type: DNA with 2'F-ANA
Sample: in vitro
Tested at: 200 nM
Setting: whole 15-mer aptamer, many near background
With: Cy3 exosite-II aptamer, 400 nM
Direction: higher = stronger binding
Oligonucleotide: GGTTGGTGTGGTTGG
For `2'F-ANA at 1 2 5 7 8 9 11 14 15`, “mean fluorescence intensity” read 52.2 a.u.
`2'F-ANA at 2 4 5 7 9 13 14`: “mean fluorescence intensity” 44.9 a.u.
`2'F-ANA at 2 4 6 9 12 13 14 15`: “mean fluorescence intensity” 87.9 a.u.
For `2'F-ANA at 1 2 3 4 6 13 15`, “mean fluorescence intensity” read 94.1 a.u.
`2'F-ANA at 3 6 7 12`: “mean fluorescence intensity” 1280 a.u.
For `2'F-ANA at 1 3 6 11 12 13`, “mean fluorescence intensity” read 392 a.u.
`2'F-ANA at 1 2 8 11 14 15` — result for “mean fluorescence intensity”: 54.5 a.u.
Under “mean fluorescence intensity”, `2'F-ANA at 3 7 8 9 10 13 14 15` is recorded as 473 a.u.
Under “mean fluorescence intensity”, `2'F-ANA at 2 5 6 11 14 15` is recorded as 133 a.u.
For `2'F-ANA at 1 5 6 7 9 10 12 13`, “mean fluorescence intensity” read 53.7 a.u.
Under “mean fluorescence intensity”, `2'F-ANA at 1 2 3 4 5 7 9 10 14 15` is recorded as 44.5 a.u.
For `2'F-ANA at 8 9 11 14`, “mean fluorescence intensity” read 185 a.u.
For `2'F-ANA at 1 2 3 5 6 7 8 9 10 13 14`, “mean fluorescence intensity” read 49.5 a.u.
`2'F-ANA at 1 2 3 7 8 12 13 14 15` — result for “mean fluorescence intensity”: 115 a.u.
Under “mean fluorescence intensity”, `2'F-ANA at 8 10 13` is recorded as 159 a.u.
For `2'F-ANA at 1 3 4 5 6 7 8 10 12 13 14 15`, “mean fluorescence intensity” read 47.4 a.u.
`2'F-ANA at 3 5 6 7 8 9 10 11 13 15`: “mean fluorescence intensity” 53.7 a.u.
`2'F-ANA at 1 2 3 6 8 11 12 13 15`: “mean fluorescence intensity” 323 a.u.
Under “mean fluorescence intensity”, `2'F-ANA at 1 5 6 13` is recorded as 58.6 a.u.
`2'F-ANA at 1 3 6 8 15` — result for “mean fluorescence intensity”: 308 a.u.
Under “mean fluorescence intensity”, `2'F-ANA at 2 3 7 11 13 15` is recorded as 689 a.u.
`2'F-ANA at 3 4 5 6 10 11 12 15`: “mean fluorescence intensity” 55.9 a.u.

Sample 3
Target: ABI1, truncated, D143A, DHFR fusion (Arabidopsis thaliana)
Technique: DHFR PCA, deep sequencing
Sample: yeast
Setting: methotrexate growth selection, single substitutions
With: (+)-ABA 0.11 µM
Baseline: wild-type fitted maximum
Direction: higher = stronger binding
Parent: PYL1, truncated, DHFR fusion (Arabidopsis thaliana); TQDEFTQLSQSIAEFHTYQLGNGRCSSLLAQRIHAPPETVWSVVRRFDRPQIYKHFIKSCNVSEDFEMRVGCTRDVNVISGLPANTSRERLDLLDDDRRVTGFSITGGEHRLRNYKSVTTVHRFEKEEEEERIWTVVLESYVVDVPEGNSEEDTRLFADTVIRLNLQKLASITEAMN
For `R49V`, “relative binding score” read 2.13%.
For `F124Q`, “relative binding score” read 5.85%.
Under “relative binding score”, `R155K` is recorded as 54.6%.
For `D95A`, “relative binding score” read -6.66%.
`W41A`: “relative binding score” -5.38%.
For `T17Y`, “relative binding score” read -4.91%.
Under “relative binding score”, `F157W` is recorded as 33.2%.
Under “relative binding score”, `E128D` is recorded as 56.9%.
`T173Q`: “relative binding score” -5.04%.
`H55D`: “relative binding score” -0.0239%.
`F66D` — result for “relative binding score”: 5.29%.
`R111H` — result for “relative binding score”: 2.13%.
Under “relative binding score”, `T160S` is recorded as 7.71%.
For `I12A`, “relative binding score” read 2.11%.
For `T86C`, “relative binding score” read 33.6%.
Under “relative binding score”, `V43A` is recorded as 5.93%.
Under “relative binding score”, `M68S` is recorded as -0.919%.
For `T119M`, “relative binding score” read 11%.
`T106A`: “relative binding score” -5.15%.
For `Y115C`, “relative binding score” read 5.49%.
For `A35R`, “relative binding score” read 0.587%.
`Y141M` — result for “relative binding score”: -7.9%.
For `W134F`, “relative binding score” read 30.8%.
`V76A`: “relative binding score” 4.52%.

Further values, each from its own experiment
Technique: cross-linking MS
`TCAF2 (Homo sapiens, UniProt A6NFQ2)` — result for cross-linked residues: “T594 to K239” (CSDE1 (Homo sapiens, UniProt O75534); cell fractions; with: DSSO).
`FKBP3 (Homo sapiens, UniProt Q00688)` — result for cross-linked residues: “K48 to S471” (GAREM1 (Homo sapiens, UniProt Q9H706); cell fractions; with: DSSO).
`DR1 (Homo sapiens, UniProt Q01658)`: interaction screen “cross-linked” (DRAP1 (Homo sapiens, UniProt Q14919); hits only).
For `COX5B (Homo sapiens, UniProt P10606)`, cross-linked residues read “K57 to K48” (COA3 (Homo sapiens, UniProt Q9Y2R0); cell fractions; with: DSSO).

Repeated from above (sample 1):
For `D13F`, “normalised enrichment score” read 0.0749.
`F11I`: “normalised enrichment score” 0.233.
For `E3L`, “normalised enrichment score” read 0.245.
`E12H` — result for “normalised enrichment score”: 0.0284.
